Measured values of several laboratories.
Numbered parts are unrelated; each lists some results of a single study. Changes are numbered by the printed parent chain.
Sequence of UniProt Q08345 (whole entry, looked up): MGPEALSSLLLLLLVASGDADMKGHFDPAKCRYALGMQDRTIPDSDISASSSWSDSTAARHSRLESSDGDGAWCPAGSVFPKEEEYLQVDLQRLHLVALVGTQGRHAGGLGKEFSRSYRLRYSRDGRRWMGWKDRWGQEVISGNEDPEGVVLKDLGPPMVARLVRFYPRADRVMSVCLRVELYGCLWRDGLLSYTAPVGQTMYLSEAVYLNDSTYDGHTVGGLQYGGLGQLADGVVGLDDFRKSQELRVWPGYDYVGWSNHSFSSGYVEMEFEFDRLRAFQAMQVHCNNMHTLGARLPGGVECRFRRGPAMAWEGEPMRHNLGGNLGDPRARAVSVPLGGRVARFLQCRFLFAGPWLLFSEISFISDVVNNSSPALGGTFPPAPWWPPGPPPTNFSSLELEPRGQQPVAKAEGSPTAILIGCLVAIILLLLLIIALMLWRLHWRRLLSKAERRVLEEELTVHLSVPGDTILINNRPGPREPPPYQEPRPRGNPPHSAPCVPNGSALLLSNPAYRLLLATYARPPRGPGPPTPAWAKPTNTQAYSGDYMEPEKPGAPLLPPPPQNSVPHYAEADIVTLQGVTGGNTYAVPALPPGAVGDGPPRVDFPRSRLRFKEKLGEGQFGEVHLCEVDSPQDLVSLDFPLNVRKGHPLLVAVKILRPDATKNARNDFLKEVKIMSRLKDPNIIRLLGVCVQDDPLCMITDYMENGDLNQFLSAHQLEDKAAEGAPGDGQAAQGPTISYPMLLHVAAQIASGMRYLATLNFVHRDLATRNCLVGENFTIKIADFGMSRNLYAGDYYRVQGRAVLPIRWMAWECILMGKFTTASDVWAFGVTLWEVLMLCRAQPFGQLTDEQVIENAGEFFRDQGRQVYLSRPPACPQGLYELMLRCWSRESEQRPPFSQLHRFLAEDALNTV

Block 1 — technique: protein binding microarray; form: double-stranded DNA, one strand shown; medium: in vitro; concentration: not given; reference: not given; reading: higher = stronger binding
Target: Histone acetyltransferase KAT6A, winged helix 2, GST fusion (KAT6A, Homo sapiens, UniProt Q92794, residues 85-181)
Setting: 8-mer, flanks averaged, mean of 2 arrays, mostly near background
Target sequence (chain): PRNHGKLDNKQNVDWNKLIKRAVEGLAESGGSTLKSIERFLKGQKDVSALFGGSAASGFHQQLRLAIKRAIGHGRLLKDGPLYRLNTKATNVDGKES
Sequence	E-score
CCTCCACC	0.0979
CTGGGCTC	0.0594
TCTACGAA	-0.0907
AGACTGAT	-0.0597
GTATCAAC	-0.084
ACCGACGA	0.151
ATTATCTG	0.052
CCGGTAGA	-0.0279

Block 2 — target: CEP164, C-terminal peptide (human); technique: DHFR complementation, deep sequencing; medium: yeast; reference: wild type; reading: higher = weaker binding
Setting: single substitutions, model-inferred values
Parent: PDZK1, PDZ domain 2 (human); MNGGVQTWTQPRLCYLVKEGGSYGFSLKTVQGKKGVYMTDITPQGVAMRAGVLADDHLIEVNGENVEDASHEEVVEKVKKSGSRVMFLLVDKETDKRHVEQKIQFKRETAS; partner HNRVKVYRF
Substitution	binding free energy change
P11I	0.547 kcal/mol
K28H	0.613 kcal/mol
K96R	-0.0294 kcal/mol
V52N	1.06 kcal/mol
I41P	1.11 kcal/mol
I41S	1.78 kcal/mol
K28V	-0.545 kcal/mol
S22I	0.253 kcal/mol

Other studies, line by line
Compound	tested on	test	test system	conditions	measurement	value
Cc1cc(C)c(-n2ccn3nc(-c4cccnc4)cc23)cc1NC(=O)c1cc(C#N)cc(S(F)(F)(F)(F)F)c1	Epithelial discoidin domain-containing receptor 1 (DDR1, Homo sapiens, UniProt Q08345)	target engagement in cells, BRET	–	–	IC50	3 nM
COc1ccc(-c2c(Nc3ccccn3)[nH]c3c(C4=CCCCC4)c(-c4ccccc4)nn3c2=O)cc1	–	LC-MS/MS non-compartmental	human, plasma	oral, 50 mg once daily, cycle 1	terminal elimination rate constant	4.46e-06 s⁻¹
CC(C)n1cnc(-c2ccc(F)cc2)c1-c1ncc(C(=O)Nc2ccc(N3CCN(C)CC3)cc2)[nH]1	–	phase 2a trial, refers to: ECG ST segment abnormal	idiopathic pulmonary fibrosis patients	dose not given, grade 3, all arms pooled	adverse event incidence	0%

For quick reference, copied from above (block 1):
Sequence	E-score
TCTACGAA	-0.0907
CTGGGCTC	0.0594
